Earlier results, collected from citations in different studies.
Each numbered part shows a few of the values that one paper quotes. “And” joins repeats or separate records; there may be more than shown. Numbers after ± are the reported error. Converted amounts (≈) assume the structure as drawn.
UniProt P30411, sequence (whole entry, looked up): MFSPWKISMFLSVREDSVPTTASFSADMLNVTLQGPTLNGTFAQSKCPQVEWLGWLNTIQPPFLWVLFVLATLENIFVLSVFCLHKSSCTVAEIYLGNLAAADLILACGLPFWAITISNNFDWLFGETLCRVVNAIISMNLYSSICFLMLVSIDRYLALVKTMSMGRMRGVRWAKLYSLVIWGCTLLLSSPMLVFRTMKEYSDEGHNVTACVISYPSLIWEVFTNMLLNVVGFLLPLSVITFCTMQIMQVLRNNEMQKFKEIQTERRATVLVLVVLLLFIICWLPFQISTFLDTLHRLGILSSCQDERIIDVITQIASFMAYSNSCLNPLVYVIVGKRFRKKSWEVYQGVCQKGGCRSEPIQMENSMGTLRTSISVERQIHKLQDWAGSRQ
UniProt P28335, sequence (whole entry, looked up): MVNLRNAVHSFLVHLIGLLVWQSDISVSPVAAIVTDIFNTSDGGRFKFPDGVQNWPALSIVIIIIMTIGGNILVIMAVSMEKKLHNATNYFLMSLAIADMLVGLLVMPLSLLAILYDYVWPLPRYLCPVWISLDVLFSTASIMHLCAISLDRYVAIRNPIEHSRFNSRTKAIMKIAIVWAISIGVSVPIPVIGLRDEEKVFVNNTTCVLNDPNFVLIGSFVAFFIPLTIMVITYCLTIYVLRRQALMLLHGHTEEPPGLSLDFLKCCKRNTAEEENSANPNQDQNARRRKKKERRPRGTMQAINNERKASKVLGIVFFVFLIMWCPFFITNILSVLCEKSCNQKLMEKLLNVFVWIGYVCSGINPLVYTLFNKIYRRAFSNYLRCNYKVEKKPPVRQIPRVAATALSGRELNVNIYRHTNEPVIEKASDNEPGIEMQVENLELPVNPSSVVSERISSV
UniProt P41143, sequence (whole entry, looked up): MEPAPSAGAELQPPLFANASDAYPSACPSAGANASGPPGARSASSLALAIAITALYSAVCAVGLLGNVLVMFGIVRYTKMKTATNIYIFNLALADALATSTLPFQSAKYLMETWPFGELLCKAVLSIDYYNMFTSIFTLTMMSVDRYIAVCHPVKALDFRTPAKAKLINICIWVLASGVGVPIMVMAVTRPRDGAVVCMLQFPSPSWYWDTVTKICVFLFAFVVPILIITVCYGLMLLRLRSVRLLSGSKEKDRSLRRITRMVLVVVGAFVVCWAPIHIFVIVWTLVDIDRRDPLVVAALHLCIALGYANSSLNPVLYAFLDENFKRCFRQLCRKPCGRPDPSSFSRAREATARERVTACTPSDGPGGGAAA
UniProt O00750, sequence (whole entry, looked up): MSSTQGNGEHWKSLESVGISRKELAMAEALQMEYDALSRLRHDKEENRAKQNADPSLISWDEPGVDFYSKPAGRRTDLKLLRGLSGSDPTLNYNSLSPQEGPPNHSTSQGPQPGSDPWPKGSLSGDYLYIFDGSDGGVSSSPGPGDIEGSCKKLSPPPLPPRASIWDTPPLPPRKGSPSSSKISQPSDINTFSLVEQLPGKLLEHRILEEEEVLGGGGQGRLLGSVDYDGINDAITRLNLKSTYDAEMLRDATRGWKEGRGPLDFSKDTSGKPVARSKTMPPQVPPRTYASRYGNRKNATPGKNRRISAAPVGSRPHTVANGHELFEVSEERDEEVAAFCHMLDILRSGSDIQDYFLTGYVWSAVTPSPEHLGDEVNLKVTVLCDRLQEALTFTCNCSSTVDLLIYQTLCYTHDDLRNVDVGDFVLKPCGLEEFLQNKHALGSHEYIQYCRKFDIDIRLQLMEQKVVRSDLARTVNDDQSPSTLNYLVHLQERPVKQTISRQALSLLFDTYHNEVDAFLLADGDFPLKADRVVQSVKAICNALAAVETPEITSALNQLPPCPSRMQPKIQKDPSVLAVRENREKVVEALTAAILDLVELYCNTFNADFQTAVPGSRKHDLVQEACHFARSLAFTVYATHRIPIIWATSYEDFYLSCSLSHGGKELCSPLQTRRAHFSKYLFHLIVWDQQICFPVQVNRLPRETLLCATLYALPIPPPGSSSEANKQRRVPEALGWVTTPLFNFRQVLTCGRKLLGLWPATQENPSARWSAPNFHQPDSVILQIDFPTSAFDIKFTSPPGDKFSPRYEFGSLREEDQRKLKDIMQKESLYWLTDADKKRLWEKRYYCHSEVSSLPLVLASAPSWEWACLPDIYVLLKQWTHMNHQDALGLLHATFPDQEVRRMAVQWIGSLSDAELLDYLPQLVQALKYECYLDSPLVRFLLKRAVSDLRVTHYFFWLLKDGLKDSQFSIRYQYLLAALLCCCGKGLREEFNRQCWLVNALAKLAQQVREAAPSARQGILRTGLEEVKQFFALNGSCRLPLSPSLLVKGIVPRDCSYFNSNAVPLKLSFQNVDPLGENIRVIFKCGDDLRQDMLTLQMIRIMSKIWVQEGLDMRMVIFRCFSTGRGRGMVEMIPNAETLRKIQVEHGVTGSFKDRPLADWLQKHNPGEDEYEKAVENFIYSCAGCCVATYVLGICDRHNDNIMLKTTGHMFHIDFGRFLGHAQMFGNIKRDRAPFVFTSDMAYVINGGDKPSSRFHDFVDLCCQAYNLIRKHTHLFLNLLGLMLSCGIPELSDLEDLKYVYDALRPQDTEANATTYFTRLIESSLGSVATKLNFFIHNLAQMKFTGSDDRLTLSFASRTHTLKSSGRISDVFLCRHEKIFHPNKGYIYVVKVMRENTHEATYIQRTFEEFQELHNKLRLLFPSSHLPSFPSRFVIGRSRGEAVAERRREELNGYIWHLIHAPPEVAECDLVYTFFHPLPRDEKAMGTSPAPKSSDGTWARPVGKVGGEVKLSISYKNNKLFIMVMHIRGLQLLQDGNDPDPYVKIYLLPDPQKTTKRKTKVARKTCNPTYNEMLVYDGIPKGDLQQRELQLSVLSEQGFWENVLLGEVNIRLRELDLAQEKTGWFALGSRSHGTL

Set 1
Organism: Cryptosporidium parvum
Technique: high-throughput screen
Concentration: concentration not given
Quantity: activity
Structure (SMILES) = CN1C(=O)CN=C(c2ccccc2)c2cc(Cl)ccc21; value = inactive
Structure (SMILES) = O=c1c2ccccc2[se]n1-c1ccccc1; value = inactive
Structure (SMILES) = O=C1Nc2ccc(Cl)cc2C(c2ccccc2Cl)=NC1O (stereo not drawn); value = inactive
Structure (SMILES) = CN1C(=O)CN=C(c2ccccc2)c2cc([N+](=O)[O-])ccc21; value = inactive
Structure (SMILES) = NCCc1ccccn1; value = inactive
Structure (SMILES) = Br.COc1ccc2c(c1)[C@]13CCCC[C@@H]1[C@H](C2)N(C)CC3; value = inactive
Structure (SMILES) = O=C1CC[C@@]2(O)[C@H]3Cc4ccc(O)c5c4[C@@]2(CCN3CC2CC2)[C@H]1O5; value = inactive
Structure (SMILES) = C=CCN1CC[C@]23c4c5ccc(O)c4O[C@H]2C(=O)CC[C@@]3(O)[C@H]1C5; value = inactive
Structure (SMILES) = CCC(COC(=O)c1cc(OC)c(OC)c(OC)c1)(c1ccccc1)N(C)C.O=C(O)/C=C\C(=O)O (stereo not drawn); value = inactive
Structure (SMILES) = COc1cc2c(cc1OC)[C@@]13CCN4CC5=CCO[C@H]6CC(=O)N2[C@H]1[C@H]6[C@H]5C[C@H]43; value = inactive
Structure (SMILES) = Cl.O.Oc1ccc2c3c1O[C@H]1c4[nH]c5ccccc5c4C[C@@]4(O)[C@@H](C2)N(CC2CC2)CC[C@]314; value = inactive
Structure (SMILES) = C=C1C[C@@H]2[C@H](CC[C@]3(C)C(=O)CC[C@@H]23)[C@@]2(C)C=CC(=O)C=C12; value = inactive
Structure (SMILES) = C[C@]12CC[C@H]3[C@@H](CCC4=CC(=O)CC[C@@H]43)[C@@H]1CC[C@@H]2O; value = inactive
Structure (SMILES) = CNC1CC(c2ccc(Cl)c(Cl)c2)c2ccccc21 (stereo not drawn); value = inactive
Structure (SMILES) = O=C1CN=C(c2ccccc2)c2cc([N+](=O)[O-])ccc2N1; value = inactive
Structure (SMILES) = CN1CC[C@@]23CCCC[C@@H]2[C@@H]1Cc1ccc(O)cc13.O=C(O)C(O)C(O)C(=O)O; value = inactive
Structure (SMILES) = C[N+]1(CCC(C(N)=O)(c2ccccc2)c2ccccc2)CCCCC1; value = inactive
Structure (SMILES) = NC1=NC(=O)C(c2ccccc2)O1 (stereo not drawn); value = inactive
Structure (SMILES) = C=C(C)CN1CC[C@]23c4c5ccc(O)c4O[C@H]2c2[nH]c4ccccc4c2C[C@@]3(O)C1C5.Cl.O; value = inactive
Structure (SMILES) = CC[C@]1(O)CC[C@H]2[C@@H]3CCC4=CCCC[C@@H]4[C@H]3CC[C@@]21C; value = inactive
Structure (SMILES) = CNCC(O)c1ccc(O)cc1 (stereo not drawn); value = inactive
Structure (SMILES) = NC(=NCc1ccc(Cl)cc1)SCCCc1cnc[nH]1; value = inactive
Structure (SMILES) = CCOC(=O)C1(c2ccccc2)CCN(CCC(C#N)(c2ccccc2)c2ccccc2)CC1; value = inactive
Structure (SMILES) = CCCCC/C=C\C/C=C\C/C=C\C/C=C\CCCC(=O)Nc1ccc(O)cc1; value = inactive
Structure (SMILES) = CC(NC(C)(C)C)C(=O)c1cccc(Cl)c1.Cl (stereo not drawn); value = inactive

Mixed results
Structure (SMILES) = Cn1c(Cn2ccc(C(F)(F)F)c(Oc3cc(Cl)cc(C#N)c3)c2=O)n[nH]c1=O; tested on = HIV-1; test = viral replication; system = Y181C mutant; setting = 50% human serum; quantity = EC95; value = 27 nM
Structure (SMILES) = OCCN1CCN(CCC=C2c3ccccc3Sc3ccc(C(F)(F)F)cc32)CC1; tested on = MCF7; test = microarray, Connectivity Map, item: BHLHE40 mRNA; setting = concentration not given, 6 h; how to read = reference: DMSO; quantity = fold change; value = 2.19
Structure (SMILES) = OCc1ncc2n1-c1ccc(Cl)cc1C(c1ccccc1F)=NC2; quantity = logP octanol/water; value = 2.5
Structure (SMILES) = CCCCCc1cc(O)c(C/C=C(\C)CCC=C(C)C)c(O)c1; tested on = CYP2C9, human; test = enzyme activity, inhibitor; system = human liver microsomes; setting = 10 µM; quantity = inhibition; value = inhibited
Structure (SMILES) = Nc1ncc(-c2nc(N3CCOCC3)nc(N3CCOCC3)n2)c(C(F)F)n1; tested on = PIK3C2B (Homo sapiens, UniProt O00750); test = KinomeScan competition binding; setting = 10 µM; quantity = remaining binding; value = 0.75%
Structure (SMILES) = CC[C@H](C)CCCCC(=O)N[C@@H](CCN)C(=O)N[C@H](C(=O)N[C@@H](CCN)C(=O)N[C@H]1CCNC(=O)[C@H]([C@@H](C)O)NC(=O)[C@H](CCN)NC(=O)[C@H](CCN)NC(=O)[C@H](CC(C)C)NC(=O)[C@@H](CC(C)C)NC(=O)[C@H](CCN)NC1=O)[C@@H](C)O; tested on = Klebsiella pneumoniae; system = 497; quantity = MIC; value = 8 µg/mL (≈ 6.84 µM)
Structure (SMILES) = CCC(CC)O[C@@H]1C=C(C(=O)O)C[C@H](N)[C@H]1NC(C)=O; system = rat; setting = dose not given; quantity = volume of distribution; value = 1.3 L/kg
Structure (SMILES) = COc1cc2c(c(OC)c1OC)-c1ccc(OC)c(=O)cc1[C@@H](NC(C)=O)CC2; system = plasma; quantity = free Cmax; value = 3.6 nM
Structure (SMILES) = NC(N)=NCCC[C@H](NC(=O)[C@H](Cc1ccccc1)NC(=O)[C@@H]1CCCN1C(=O)[C@H](CO)NC(=O)[C@H](Cc1ccccc1)NC(=O)CNC(=O)[C@@H]1CCCN1C(=O)[C@@H]1CCCN1C(=O)[C@@H](N)CCCN=C(N)N)C(=O)O; tested on = BDKRB2 (Homo sapiens, UniProt P30411); setting = historical reference value; quantity = Hill coefficient; value = 1
Structure (SMILES) = C=CCONC(=O)c1ccc2oc(-c3ccccc3O)nc2c1; test = degrader, item: REST; system = cells; quantity = concentration for 50% reduction; value = 50 to 100 µM
Structure (SMILES) = O=C(O)c1cc(-c2ccc(C3CCNCC3)cc2)c2ccc(-c3ccc(C(F)(F)F)cc3)cc2c1; setting = pH 4; quantity = solubility; value = 1.1 ± 0.07 µg/mL
Structure (SMILES) = C=CC=C; test = substrate; system = human liver microsomes; quantity = Km; value = 200 µM and 390 µM
Structure (SMILES) = COC[C@@H](c1ccc(C(F)(F)F)cc1)N1CCN(C2(C)CCN(C(=O)c3c(C)ncnc3C)CC2)C[C@@H]1C; tested on = HIV-1; test = viral replication; system = R5 strains; setting = 11; quantity = IC50; value = 0.00158 µg/mL (≈ 0.00296 µM)
Structure (SMILES) = c1c[nH]cn1; setting = conjugate acid; quantity = pKa; value = ~7
Structure (SMILES) = O=c1ccc2ncc(=O)n3c2n1C[C@H]3CN1CCC(NCc2cc3c(cn2)OCCC3)CC1; system = plasma; setting = intravenous, concentration not given, single dose 14C-labelled; quantity = parent share of radioactivity AUC(0-inf); value = 63%
Structure (SMILES) = Oc1ccc2c3c1O[C@H]1c4[nH]c5ccccc5c4C[C@@]4(O)[C@@H](C2)N(CC2CC2)CC[C@]314; tested on = OPRD1 (Homo sapiens, UniProt P41143); setting = historical reference value; quantity = Hill coefficient; value = 1
Structure (SMILES) = O=C(O)c1cc(-c2ccc([C@H]3C[C@H]4C[C@@H]3CN4)cc2)c2ccc(-c3ccc(C(F)(F)F)cc3)cc2c1; setting = pH 7.4; quantity = solubility; value = 0.77 ± 0.21 µg/mL
Structure (SMILES) = COc1c(OCCCN2CCOCC2)ccc2c1N=C(NC(=O)c1cnc(N)nc1)N1CCN=C21; system = human; setting = dose not given, at MTD; quantity = half-life; value = ~38 h
Structure (SMILES) = CCCCCCCCCCCCCCCCn1cc[n+](Cc2ccccc2)c1C.[I-]; tested on = Staphylococcus aureus; test = biofilm eradication, Calgary biofilm device; system = MRSA BAA-1707; quantity = MBEC; value = 46.9 µM
Structure (SMILES) = CS(=O)(=O)NCC1CCOC2(CCN(C(=O)C3(c4ccccc4)CCCC3)CC2)C1 (stereo not drawn); setting = concentration not given; quantity = solubility; value = 240 µM
Structure (SMILES) = COc1cc(CC(C)N)c(OC)cc1I (racemic) [iodine-125 labelled]; tested on = HTR2C (Homo sapiens, UniProt P28335); test = radioligand binding; system = HEK293 cells; quantity = Kd; value = 0.9 nM
Structure (SMILES) = CN[C@H](CC(C)C)C(=O)N[C@H]1C(=O)N[C@@H](CC(N)=O)C(=O)N[C@H]2C(=O)N[C@H]3C(=O)N[C@H](C(=O)N[C@H](C(=O)O)c4cc(O)cc(O)c4-c4cc3ccc4O)[C@H](O)c3ccc(c(Cl)c3)Oc3cc2cc(c3O[C@@H]2O[C@H](CO)[C@@H](O)[C@H](O)[C@H]2O[C@H]2C[C@](C)(N)[C@H](O)[C@H](C)O2)Oc2ccc(cc2Cl)[C@H]1O; tested on = Staphylococcus aureus; system = MRSA 20, biofilm; quantity = MBEC; value = > 2000 µM
Structure (SMILES) = C=C(C)[C@@H]1CCC(C)=C[C@H]1c1c(O)cc(CCCCC)cc1O; tested on = CYP2C9, human; test = enzyme activity, inhibitor; system = human liver microsomes; setting = 10 µM; quantity = inhibition; value = inhibited
Structure (SMILES) = CC(NC(C)(C)C)C(=O)c1cccc(Cl)c1 (stereo not drawn); system = plasma; setting = concentration not given, total, literature data; quantity = Cmax; value = 734 nM
Structure (SMILES) = CC1(C)C2CCC1(CS(=O)(=O)O)C(=O)C2 (single isomer, unassigned; (+)); quantity = pKa; value = 1.2
Structure (SMILES) = COc1ccc(C(c2ccc(OC)cc2)C(Cl)(Cl)Cl)cc1; tested on = MCF7; test = cell proliferation; setting = 10% FBS; quantity = EC50; value = 1040 nM

Repeated from above (mixed results):
Structure (SMILES) = CCC(CC)O[C@@H]1C=C(C(=O)O)C[C@H](N)[C@H]1NC(C)=O; system = rat; setting = dose not given; quantity = volume of distribution; value = 1.3 L/kg
Structure (SMILES) = C=C(C)[C@@H]1CCC(C)=C[C@H]1c1c(O)cc(CCCCC)cc1O; tested on = CYP2C9, human; test = enzyme activity, inhibitor; system = human liver microsomes; setting = 10 µM; quantity = inhibition; value = inhibited
Structure (SMILES) = CCCCCc1cc(O)c(C/C=C(\C)CCC=C(C)C)c(O)c1; tested on = CYP2C9, human; test = enzyme activity, inhibitor; system = human liver microsomes; setting = 10 µM; quantity = inhibition; value = inhibited
